Measured values pooled from the literature.
Every numbered part comes from another study and shows a few of its results, in no order. Changes are numbered by the printed parent chain.
Chain of UniProt P28335 (whole entry, looked up): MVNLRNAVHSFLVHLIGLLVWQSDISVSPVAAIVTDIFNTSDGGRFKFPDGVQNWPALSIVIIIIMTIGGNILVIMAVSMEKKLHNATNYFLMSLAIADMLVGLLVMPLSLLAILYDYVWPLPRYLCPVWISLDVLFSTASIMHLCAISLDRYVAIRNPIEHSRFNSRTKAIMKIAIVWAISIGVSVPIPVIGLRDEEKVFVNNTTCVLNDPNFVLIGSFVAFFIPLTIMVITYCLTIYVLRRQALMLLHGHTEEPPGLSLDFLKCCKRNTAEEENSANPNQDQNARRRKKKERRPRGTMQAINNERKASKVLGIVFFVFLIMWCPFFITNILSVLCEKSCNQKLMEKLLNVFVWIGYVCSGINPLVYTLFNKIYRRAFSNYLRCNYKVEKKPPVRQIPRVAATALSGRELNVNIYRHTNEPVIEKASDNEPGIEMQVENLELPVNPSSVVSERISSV

Sample 1
Target: CCNE2, cyclin fold, Cln2 fusion (human)
Technique: yeast growth competition, sequencing
Sample: yeast
Setting: strong parent motif
Relative to: not given
Direction: higher = stronger binding
Starting sequence: viral docking peptide; KGVKRKLFAEDSS
Under “normalised enrichment score”, `R5T` is recorded as 0.304.
For `F8I`, “normalised enrichment score” read 0.373.
Under “normalised enrichment score”, `V3T` is recorded as 3.31.
`F8D` — result for “normalised enrichment score”: -0.257.
For `K4S`, “normalised enrichment score” read 4.47.
`L7E`: “normalised enrichment score” 0.612.
For `G2K`, “normalised enrichment score” read 6.27.
Under “normalised enrichment score”, `V3W` is recorded as 3.06.

Sample 2
Target: vanadate, free oxyanion
Technique: microfluidic competitive inhibition
Sample: in vitro, cell-free expressed
Concentration: not given
Setting: derived from inhibition constants, unchanged parent 676 nM
Direction: lower = stronger binding
Starting sequence: PafA, mature enzyme, eGFP fusion (Elizabethkingia meningoseptica, UniProt Q9KJX5); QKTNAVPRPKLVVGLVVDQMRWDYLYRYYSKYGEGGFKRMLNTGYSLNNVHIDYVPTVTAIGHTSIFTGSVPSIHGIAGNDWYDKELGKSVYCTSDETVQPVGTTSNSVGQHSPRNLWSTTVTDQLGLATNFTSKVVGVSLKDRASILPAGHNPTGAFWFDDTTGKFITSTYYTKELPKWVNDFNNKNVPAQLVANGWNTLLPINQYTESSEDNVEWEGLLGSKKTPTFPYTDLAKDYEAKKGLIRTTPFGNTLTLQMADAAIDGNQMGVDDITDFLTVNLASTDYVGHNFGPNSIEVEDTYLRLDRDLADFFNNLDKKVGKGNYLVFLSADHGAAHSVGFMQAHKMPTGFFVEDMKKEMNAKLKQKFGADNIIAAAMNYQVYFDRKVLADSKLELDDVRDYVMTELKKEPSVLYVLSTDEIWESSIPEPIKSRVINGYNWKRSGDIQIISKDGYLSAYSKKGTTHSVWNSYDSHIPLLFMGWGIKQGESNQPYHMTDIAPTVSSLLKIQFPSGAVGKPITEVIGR
Under “oxyanion analog dissociation constant”, `I499G` is recorded as 1.26 µM.
For `T228G`, “oxyanion analog dissociation constant” read 839 nM.
Under “oxyanion analog dissociation constant”, `K365G` is recorded as 622 nM.
`H112G` — result for “oxyanion analog dissociation constant”: 2.96 µM.
`E489G` — result for “oxyanion analog dissociation constant”: 908 nM.
For `L305G`, “oxyanion analog dissociation constant” read 2.44 µM.
For `V13G`, “oxyanion analog dissociation constant” read 647 nM.
Under “oxyanion analog dissociation constant”, `H475V` is recorded as 1.07 µM.

Sample 3
Target: UDP-N-acetylglucosamine--peptide N-acetylglucosaminyltransferase 110 kDa subunit (OGT, Homo sapiens, UniProt O15294)
Read-out: binding
Technique: phage display NGS
Molecule type: peptide
Relative to: input library
Target sequence (O15294 1-1046): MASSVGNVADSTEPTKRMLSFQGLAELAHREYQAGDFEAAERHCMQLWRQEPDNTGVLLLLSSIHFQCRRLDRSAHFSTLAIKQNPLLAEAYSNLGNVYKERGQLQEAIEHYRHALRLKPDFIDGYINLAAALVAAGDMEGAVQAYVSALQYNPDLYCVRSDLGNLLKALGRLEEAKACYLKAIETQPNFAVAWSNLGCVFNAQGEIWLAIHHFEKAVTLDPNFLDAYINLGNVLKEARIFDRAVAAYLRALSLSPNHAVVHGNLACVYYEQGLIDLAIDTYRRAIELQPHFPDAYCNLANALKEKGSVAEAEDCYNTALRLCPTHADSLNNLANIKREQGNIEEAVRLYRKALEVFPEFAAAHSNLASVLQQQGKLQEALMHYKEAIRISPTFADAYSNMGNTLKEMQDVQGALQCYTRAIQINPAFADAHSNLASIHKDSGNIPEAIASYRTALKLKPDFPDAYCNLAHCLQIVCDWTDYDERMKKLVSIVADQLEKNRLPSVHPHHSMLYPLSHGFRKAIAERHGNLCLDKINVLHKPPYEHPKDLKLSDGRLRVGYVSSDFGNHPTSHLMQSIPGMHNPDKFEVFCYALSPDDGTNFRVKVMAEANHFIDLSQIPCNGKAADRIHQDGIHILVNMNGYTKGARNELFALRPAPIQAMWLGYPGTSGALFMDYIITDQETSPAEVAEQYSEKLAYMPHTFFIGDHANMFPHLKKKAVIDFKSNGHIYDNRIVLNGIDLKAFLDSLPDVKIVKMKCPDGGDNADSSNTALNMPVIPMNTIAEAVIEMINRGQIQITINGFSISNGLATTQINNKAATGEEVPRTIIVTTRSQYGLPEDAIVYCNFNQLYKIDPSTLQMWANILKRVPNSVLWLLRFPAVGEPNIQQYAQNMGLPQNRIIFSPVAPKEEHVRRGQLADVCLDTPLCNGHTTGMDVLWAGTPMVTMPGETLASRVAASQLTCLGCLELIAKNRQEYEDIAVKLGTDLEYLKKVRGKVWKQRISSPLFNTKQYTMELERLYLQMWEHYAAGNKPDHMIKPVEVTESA
For `NWYVSDHTDNHHSMA`, “minimum log2 enrichment ratio” read 2.49.
For `WPHNWAYHGFDWHA`, “minimum log2 enrichment ratio” read 5.8.
Under “minimum log2 enrichment ratio”, `SWMPFYQIEFSQGSS` is recorded as 3.89.
`THQHAHHVYSIDPSG` — result for “minimum log2 enrichment ratio”: 2.01.
Under “minimum log2 enrichment ratio”, `HGPYHVPRHVPYKYG` is recorded as 3.32.
`VADRFLPIYQLTTRG` — result for “minimum log2 enrichment ratio”: 2.59.
For `QYPPAYQISIMPYKG`, “minimum log2 enrichment ratio” read 3.59.
For `QWQHQTRHVHIPHNH`, “minimum log2 enrichment ratio” read 2.76.

Single results of other studies
With `Cc1ncc(-c2cc(Cl)ccc2F)cc1-n1c(=O)n(CC(N)=O)c2ccccc21` the inhibition was 10.2% (5-hydroxytryptamine receptor 2C (HTR2C, Homo sapiens, UniProt P28335); ligand displacement; 10 µM).

For quick reference, copied from above (sample 3):
`VADRFLPIYQLTTRG` — result for “minimum log2 enrichment ratio”: 2.59.
For `QYPPAYQISIMPYKG`, “minimum log2 enrichment ratio” read 3.59.
